{"data": "Assay results pooled from the literature", "HDAC8": "Histone deacetylase 8 (HDAC8, Homo sapiens, UniProt Q9BY41)", "note": "Compare with care: the assays were run in different laboratories.", "UniProt Q9BY41, sequence (whole entry, looked up)": "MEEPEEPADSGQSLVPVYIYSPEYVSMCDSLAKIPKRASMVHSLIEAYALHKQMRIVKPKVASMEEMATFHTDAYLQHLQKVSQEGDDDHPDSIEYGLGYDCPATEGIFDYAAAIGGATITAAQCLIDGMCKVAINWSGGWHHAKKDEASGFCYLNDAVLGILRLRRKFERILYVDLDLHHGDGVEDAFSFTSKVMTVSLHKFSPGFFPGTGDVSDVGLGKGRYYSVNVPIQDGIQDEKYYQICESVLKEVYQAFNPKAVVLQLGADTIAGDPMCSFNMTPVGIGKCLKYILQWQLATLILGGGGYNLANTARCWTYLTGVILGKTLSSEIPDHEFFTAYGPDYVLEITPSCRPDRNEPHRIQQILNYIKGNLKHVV", "UniProt Q9NZJ5, sequence (whole entry, looked up)": "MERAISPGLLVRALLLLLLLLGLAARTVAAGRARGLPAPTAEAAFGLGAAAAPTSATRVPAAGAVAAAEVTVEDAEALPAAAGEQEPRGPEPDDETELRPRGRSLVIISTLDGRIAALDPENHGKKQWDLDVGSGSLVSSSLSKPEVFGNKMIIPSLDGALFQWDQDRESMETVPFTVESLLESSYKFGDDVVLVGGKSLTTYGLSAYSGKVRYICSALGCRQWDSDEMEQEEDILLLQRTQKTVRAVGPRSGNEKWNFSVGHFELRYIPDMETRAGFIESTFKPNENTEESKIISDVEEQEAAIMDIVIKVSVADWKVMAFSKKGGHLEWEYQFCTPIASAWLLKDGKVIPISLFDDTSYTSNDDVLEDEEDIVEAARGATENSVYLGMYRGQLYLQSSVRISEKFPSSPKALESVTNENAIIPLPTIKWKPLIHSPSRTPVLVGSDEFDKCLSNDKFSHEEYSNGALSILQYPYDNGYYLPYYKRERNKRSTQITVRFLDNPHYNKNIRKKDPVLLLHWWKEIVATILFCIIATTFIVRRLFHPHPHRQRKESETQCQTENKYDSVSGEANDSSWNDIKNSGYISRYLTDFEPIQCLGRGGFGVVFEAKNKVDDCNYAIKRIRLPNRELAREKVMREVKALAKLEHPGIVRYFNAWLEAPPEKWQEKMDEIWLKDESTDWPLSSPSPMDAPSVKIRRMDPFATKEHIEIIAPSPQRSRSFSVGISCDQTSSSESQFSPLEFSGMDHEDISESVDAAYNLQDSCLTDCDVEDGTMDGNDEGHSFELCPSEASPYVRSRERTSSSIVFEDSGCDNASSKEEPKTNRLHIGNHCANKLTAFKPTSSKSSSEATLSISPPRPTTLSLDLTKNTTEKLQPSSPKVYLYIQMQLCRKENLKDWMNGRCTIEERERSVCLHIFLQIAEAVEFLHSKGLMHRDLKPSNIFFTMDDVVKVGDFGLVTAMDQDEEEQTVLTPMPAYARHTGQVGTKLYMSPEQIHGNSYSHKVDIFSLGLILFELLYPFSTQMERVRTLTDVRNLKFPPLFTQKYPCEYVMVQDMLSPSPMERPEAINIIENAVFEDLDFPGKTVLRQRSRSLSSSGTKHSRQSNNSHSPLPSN", "UniProt P35462, sequence (whole entry, looked up)": "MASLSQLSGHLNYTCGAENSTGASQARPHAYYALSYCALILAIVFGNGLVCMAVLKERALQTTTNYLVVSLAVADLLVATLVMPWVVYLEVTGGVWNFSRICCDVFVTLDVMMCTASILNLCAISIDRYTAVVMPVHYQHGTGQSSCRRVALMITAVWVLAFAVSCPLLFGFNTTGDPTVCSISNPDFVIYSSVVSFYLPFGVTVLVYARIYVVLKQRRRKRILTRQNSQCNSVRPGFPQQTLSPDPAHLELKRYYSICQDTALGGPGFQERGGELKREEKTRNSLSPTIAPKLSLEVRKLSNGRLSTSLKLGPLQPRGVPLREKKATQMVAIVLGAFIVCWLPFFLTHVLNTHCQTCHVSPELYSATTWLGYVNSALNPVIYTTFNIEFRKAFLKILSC", "UniProt P08588, sequence (whole entry, looked up)": "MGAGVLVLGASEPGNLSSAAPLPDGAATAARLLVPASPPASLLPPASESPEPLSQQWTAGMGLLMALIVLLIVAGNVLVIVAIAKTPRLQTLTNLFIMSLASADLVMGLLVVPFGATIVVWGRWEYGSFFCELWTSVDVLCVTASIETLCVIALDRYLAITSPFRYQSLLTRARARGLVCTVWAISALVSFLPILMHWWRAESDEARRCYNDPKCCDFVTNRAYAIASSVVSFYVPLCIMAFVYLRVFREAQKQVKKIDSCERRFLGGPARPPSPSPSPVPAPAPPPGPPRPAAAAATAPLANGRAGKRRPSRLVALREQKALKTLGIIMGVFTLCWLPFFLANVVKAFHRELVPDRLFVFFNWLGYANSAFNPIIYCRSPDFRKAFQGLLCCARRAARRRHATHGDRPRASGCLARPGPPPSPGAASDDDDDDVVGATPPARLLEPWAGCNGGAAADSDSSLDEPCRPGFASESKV", "UniProt P06401, sequence (whole entry, looked up)": "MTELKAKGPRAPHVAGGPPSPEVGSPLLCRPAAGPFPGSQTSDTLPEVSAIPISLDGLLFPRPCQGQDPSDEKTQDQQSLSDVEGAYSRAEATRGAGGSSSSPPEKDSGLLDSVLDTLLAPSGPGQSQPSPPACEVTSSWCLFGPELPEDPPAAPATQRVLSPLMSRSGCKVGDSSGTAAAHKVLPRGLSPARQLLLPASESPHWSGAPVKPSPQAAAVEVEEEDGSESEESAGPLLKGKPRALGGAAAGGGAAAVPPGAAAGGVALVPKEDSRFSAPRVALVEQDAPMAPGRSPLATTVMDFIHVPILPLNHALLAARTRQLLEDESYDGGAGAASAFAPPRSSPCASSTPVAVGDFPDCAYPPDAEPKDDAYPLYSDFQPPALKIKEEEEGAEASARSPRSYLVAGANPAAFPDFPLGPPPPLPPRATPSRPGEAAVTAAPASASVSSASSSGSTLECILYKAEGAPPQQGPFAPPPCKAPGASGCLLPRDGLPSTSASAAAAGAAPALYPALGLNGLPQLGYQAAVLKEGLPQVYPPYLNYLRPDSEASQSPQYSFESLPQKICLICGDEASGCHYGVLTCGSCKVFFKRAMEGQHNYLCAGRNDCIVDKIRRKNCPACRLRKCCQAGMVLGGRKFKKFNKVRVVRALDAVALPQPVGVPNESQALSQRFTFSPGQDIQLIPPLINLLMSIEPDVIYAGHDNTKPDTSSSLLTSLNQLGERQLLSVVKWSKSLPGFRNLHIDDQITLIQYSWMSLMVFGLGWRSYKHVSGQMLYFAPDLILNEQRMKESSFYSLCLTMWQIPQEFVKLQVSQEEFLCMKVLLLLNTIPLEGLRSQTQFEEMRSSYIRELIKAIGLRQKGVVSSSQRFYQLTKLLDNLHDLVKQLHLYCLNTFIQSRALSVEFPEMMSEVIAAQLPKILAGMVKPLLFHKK", "UniProt P43235, sequence (whole entry, looked up)": "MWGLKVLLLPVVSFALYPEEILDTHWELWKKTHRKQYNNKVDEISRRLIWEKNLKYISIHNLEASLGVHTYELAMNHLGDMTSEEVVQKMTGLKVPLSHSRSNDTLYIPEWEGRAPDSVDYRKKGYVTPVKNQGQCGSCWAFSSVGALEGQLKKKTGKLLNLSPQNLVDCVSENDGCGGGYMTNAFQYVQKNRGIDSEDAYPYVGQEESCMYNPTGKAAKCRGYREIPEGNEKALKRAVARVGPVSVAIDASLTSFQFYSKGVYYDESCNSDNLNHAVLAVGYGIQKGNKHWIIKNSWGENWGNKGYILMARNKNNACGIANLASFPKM"}
{"SMILES": "CCN1CCN(Cc2ccc(Nc3ncc4c(n3)N(C)c3ccccc3C(=O)N4C)cc2C(F)(F)F)CC1", "target": "Aurora kinase A (AURKA, Homo sapiens, UniProt O14965)", "how to read": "relative to: IC50 Aurora B over IC50 Aurora A", "selectivity ratio": "12 fold"}
{"SMILES": "N[C@@H](CCC(=O)N[C@@H](CS[Se]Cc1ccc(-c2cccc(C(O)c3ccc(Cl)c(Cl)c3)c2)cc1)C(=O)NCC(=O)O)C(=O)O (stereo partly shown)", "target": "PTPRC (Homo sapiens, UniProt P08575)", "how to read": "relative to: IC50 PTPRC over STEP", "selectivity ratio": "> 20 fold"}
{"SMILES": "CN(C)CCNC(=O)c1cccc2c(NCCCCc3c(N)nc(N)nc3N)c3ccccc3nc12", "target": "human cardiac troponin T pre-mRNA 18-nt fragment", "assay": "binding, ITC", "how to read": "relative to: Kd RNA A over Kd RNA I", "selectivity ratio": 93}
{"SMILES": "CC(C)[C@H](NC(=O)[C@H](CC(=O)O)NC(=O)CNC(=O)[C@@H](N)CCCNC(=N)N)C(=O)O", "target": "Integrin alpha-IIb/beta-3, ADP-activated (Homo sapiens, UniProt P05106+P08514)", "assay": "fibrinogen binding", "how to read": "relative to: IC50 endothelial cells over platelets", "selectivity ratio": "20 fold"}
{"SMILES": "O=C(CCCCCCN(Cc1ccc([N+](=O)[O-])cc1)Cc1ccc([N+](=O)[O-])cc1)NO", "target": "HDAC8", "assay": "inhibitor", "how to read": "relative to: IC50 HDAC8 over HDAC1", "selectivity ratio": 2.5}
{"SMILES": "O=C(c1ccc(F)cc1)C1CCN(C2Cc3c(O)cccc3CC2O)CC1 (single isomer, unassigned; (+))", "target": "VAChT and sigma-2 receptor", "how to read": "relative to: sigma-2 Ki over VAChT Ki", "selectivity ratio": 1900}
{"SMILES": "Cc1cc(NC(=O)[C@H](O)c2cc(F)cc(F)c2)ccc1-c1cnc(N)c(C(=O)NC(C)C)c1", "target": "EIF2AK3 (Homo sapiens, UniProt Q9NZJ5)", "assay": "FRET kinase", "how to read": "relative to: GCN2, HRI, PKR over PERK", "selectivity ratio": "> 2000 fold"}
{"SMILES": "Cc1ccc(C[C@H](NC(=O)CN2CCCc3cc4cc(C(=O)NCCNC(=O)CCCC[C@@H]5SC[C@@H]6NC(=O)N[C@@H]65)c(=O)oc4cc32)C(=O)NC/C=C/S(=O)(=O)c2ccccc2)cc1", "target": "Cathepsin K (CTSK, Homo sapiens, UniProt P43235)", "assay": "inhibitor", "setting": "kinact/Ki", "how to read": "relative to: rhodesain over target", "selectivity ratio": 21}
{"SMILES": "COc1ccc(CNCCCCCCC(=O)NO)cc1OC", "target": "HDAC8", "assay": "inhibitor", "how to read": "relative to: IC50 HDAC8 over HDAC1", "selectivity ratio": 8.6}
{"SMILES": "CC(C)(O)Cn1nc(-c2ccc3nc(OC(F)F)ccc3c2)c2c(N)ncnc21", "target": "CDPK1 (Toxoplasma gondii, UniProt Q9BJF5)", "assay": "Kinase-Glo luminescence", "setting": "added: Syntide 2 substrate", "how to read": "relative to: CDPK1 over CpCDPK1 IC50", "selectivity ratio": "> 10 fold"}
{"SMILES": "CCCCCCCCCCCCCCCCC1=C[C@H](C(=O)NC(C(=O)O)C(C)C)[C@H]2C(=O)C(C(=O)OC)=C(CCCCCCCCCCCCCCCC)[C@H]2[C@H]1C(=O)OC (stereo partly shown)", "target": "PTPN2 (Homo sapiens, UniProt P17706)", "assay": "inhibitor, pNPP hydrolysis", "how to read": "relative to: TCPTP over PTP1B, higher = TCPTP-selective", "selectivity ratio": 4}
{"SMILES": "O=C(CCCCCCNCc1ccc2c(c1)OCO2)NO", "target": "HDAC8", "assay": "inhibitor", "how to read": "relative to: IC50 HDAC8 over HDAC1", "selectivity ratio": 2.1}
{"SMILES": "CC(=O)Nc1ccc(/N=N/c2ccc(OC[C@@H](O)CNC(C)C)cc2)cc1", "target": "ADRB1 (Homo sapiens, UniProt P08588)", "assay": "cAMP production, EPAC FRET biosensor", "setting": "dark", "how to read": "relative to: beta1 over beta2", "selectivity ratio": 93.8}
{"SMILES": "O=C(CCCCCCN(Cc1ccc(F)cc1)Cc1ccc(F)cc1)NO", "target": "HDAC8", "assay": "inhibitor", "how to read": "relative to: IC50 HDAC8 over HDAC1", "selectivity ratio": 2.1}
{"SMILES": "CCCCCCCC(=O)Nc1ccc(OC)nc1", "target": "FAAH (Homo sapiens, UniProt O00519)", "assay": "substrate, biochemical", "how to read": "relative to: FAAH over hCE1", "selectivity ratio": "20 fold"}
{"SMILES": "Cc1cc(CN(CCCCCCC(=O)NO)Cc2ccc(F)c(C)c2)ccc1F", "target": "HDAC8", "assay": "inhibitor", "how to read": "relative to: IC50 HDAC8 over HDAC1", "selectivity ratio": 2.9}
{"SMILES": "CC(C)CCSc1nc2c([nH]1)c(=S)n(C)c(=O)n2C", "target": "PGR (Homo sapiens, UniProt P06401)", "assay": "reporter gene", "test system": "T47D/A1-2", "how to read": "relative to: potency at target over glucocorticoid receptor", "selectivity ratio": "≤ 10 fold"}
{"SMILES": "O=C(CCCCCCN(Cc1ccc2c(c1)OCO2)Cc1ccc2c(c1)OCO2)NO", "target": "HDAC8", "assay": "inhibitor", "how to read": "relative to: IC50 HDAC8 over HDAC1", "selectivity ratio": 8.4}
{"SMILES": "CC(CO)(CO)NCc1ccc(-c2cc(Cl)ccc2Cl)o1", "target": "DRD3 (Homo sapiens, UniProt P35462)", "assay": "binding, radioligand competition", "how to read": "relative to: Ki D2 over Ki D3", "selectivity ratio": "6 fold"}
{"note": "Excerpt of the above:"}
{"SMILES": "Cc1cc(CN(CCCCCCC(=O)NO)Cc2ccc(F)c(C)c2)ccc1F", "target": "HDAC8", "assay": "inhibitor", "how to read": "relative to: IC50 HDAC8 over HDAC1", "selectivity ratio": 2.9}
